Published values from different studies.
Each numbered part is a random draw from the data of one study; scales do not carry over between parts.

Series 1
Target: Prothrombin, mature alpha-thrombin (F2, Homo sapiens, UniProt P00734)
Method: aptamer microarray, sandwich
Molecule type: DNA with 2'F-ANA
Medium: in vitro
Tested at: 200 nM
Setting: whole 15-mer aptamer, many near background
With: Cy3 exosite-II aptamer, 400 nM
Reading: higher = stronger binding
Measurement: mean fluorescence intensity
Sequence: GGTTGGTGTGGTTGG
2'F-ANA at 5 6 8 9 12 14 15: 50 a.u.
2'F-ANA at 1 2 5 6 7 8 9 15: 84.3 a.u.
2'F-ANA at 1 3 6 7 8 9 14: 99.7 a.u.
2'F-ANA at 2 3 5 6 7 8 10 11 12 13: 56.1 a.u.
2'F-ANA at 1 2 5 8 10 11 12 14: 101 a.u.
2'F-ANA at 2 3 5 6 7 8 11 14: 52.2 a.u.
2'F-ANA at 3 8 10 11 12 13 14 15: 401 a.u.
2'F-ANA at 3 13 15: 1010 a.u.
2'F-ANA at 1 3 6 11 15: 223 a.u.
2'F-ANA at 1 2 3 8 14 15: 134 a.u.
2'F-ANA at 2 4 8 9 12 15: 549 a.u.
2'F-ANA at 1 2 3 6 7 10 11 13 15: 61.3 a.u.
2'F-ANA at 2 4 8 10 13 14: 60.2 a.u.
2'F-ANA at 1 4 5 7 8: 63 a.u.
2'F-ANA at 2 5 8: 82.5 a.u.
2'F-ANA at 1 2 4 9 12 13 14: 56.8 a.u.
2'F-ANA at 1 4 5 6 9 11 14: 87.3 a.u.
2'F-ANA at 2 3 6 7 11 12 13 14 15: 357 a.u.
2'F-ANA at 2 3 4 5 6 8 10 11 13 15: 52.6 a.u.
2'F-ANA at 2 4 6 7 12 13 14 15: 108 a.u.
2'F-ANA at 2 10 12 14: 97.3 a.u.
2'F-ANA at 2 3 4 8 9 13: 483 a.u.
2'F-ANA at 2 5 6 7 11 14: 44.4 a.u.
2'F-ANA at 2 4 5 6 8 11 12 14: 62.5 a.u.
2'F-ANA at 1 4 5 6 7 8 10 12 13 14: 48.5 a.u.

Series 2
Target: Centromere-binding protein 1, full length, His-tagged (CBF1, Saccharomyces cerevisiae, UniProt P17106, residues 1-351)
Chain of UniProt P17106 (whole entry, looked up): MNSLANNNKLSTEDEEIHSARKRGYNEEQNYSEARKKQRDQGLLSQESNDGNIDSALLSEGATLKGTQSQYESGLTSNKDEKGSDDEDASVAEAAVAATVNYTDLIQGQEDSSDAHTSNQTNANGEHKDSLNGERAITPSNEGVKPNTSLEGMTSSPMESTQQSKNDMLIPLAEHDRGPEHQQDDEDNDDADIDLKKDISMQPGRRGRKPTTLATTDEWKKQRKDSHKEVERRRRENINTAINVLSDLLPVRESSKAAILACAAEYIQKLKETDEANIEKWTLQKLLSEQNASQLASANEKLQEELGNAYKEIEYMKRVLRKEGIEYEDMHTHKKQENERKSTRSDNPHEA
Method: competition protein-binding microarray
Molecule type: double-stranded DNA, one strand shown
Medium: in vitro
Tested at: 2 µM
Setting: whole 60-bp probe, lowest competitor level
With: Pho4 competitor, 0.05 µM
Reading: higher = stronger binding
Measurement: fluorescence intensity
Constant ends, left off below: … GTCTTGATTCGCTTGACGCTGCTG
CATACCCAACCTTTTCACGTGGTTTAAGATATTTGT: 1450 a.u.
TGCTCTATGATGTTGCACATGCACTTGTTTTGTTGT: 155 a.u.
GTCTTGTCTCATTTTCACGTGACATTCCCCACTTCA: 3890 a.u.
CGTTATTGAAAATCTCACGTGATGGTATCCACTAAT: 3310 a.u.
CCACAATCACTAGACCATGTGATTTGTATTTTTCGG: 2090 a.u.
AAATTACTAAGTTGTTTAGTGGGTGACGCCGTATGA: 72 a.u.
TGGCCAAGGTTGTTTTCCGTGACTCGTACAAGTACA: 96.9 a.u.
CGGGGTTAAGTTTTTCACGTGTAATGCTTGCAGCAG: 603 a.u.
CTAACGAAGGTTTTTCACGTGGACTACAAGCCAAGT: 540 a.u.
TGCGCAACAACTTGTCACTCAACTTTATGTCTAGAA: 80.6 a.u.
CAGCAAGTCCTTCCTCACCTGATCCTTCTCATCGTC: 120 a.u.
CCCACCGTAAGGAAACACGTGGTGATGGTGGTATAT: 1030 a.u.
AAAGCGGTAATTTGTCACGTTACTTCACATATCTAT: 866 a.u.
GAGCAAGATACTTAGCACGTGAAGCGAGGAACAGTT: 1310 a.u.
CCAAAAACCCTACGGCATGTGGGATTGGGACACCTT: 60.7 a.u.
AGACTGTATTTTTGTCACCTGTCGCGGCAACTTACT: 189 a.u.
ATCATCGTAGATACCCACGTATAAATCAGTAACGCC: 78.2 a.u.
AAAGCGGTAATTTGACAGGTGGGTGCAGATATCTAT: 71.6 a.u.
CATGCCCTTTCCTCCCTCGTGGGACCTCCCAGGAGA: 52 a.u.
CTTTCCCGATCTTGATATGTGGGTGTAGCACATTTG: 80.1 a.u.
CATACCCAACCTTGCATCGTGGGTGAAGATATTTGT: 74.3 a.u.
CTGCATCGGCCGGCCCATGTGAAAAGGAAGTATTTA: 88.2 a.u.
CTTCTGTAAATTTGATAAGTGGGTGGACGCGCCCCG: 76.6 a.u.
CATACCCAACCTTGTTCAGTGGGTGAAGATATTTGT: 75.8 a.u.

Series 3
Target: RNA binding protein fox-1 homolog 2, RRM domain, GST-SBP tag (RBFOX2, Homo sapiens, UniProt O43251-10, residues 100-194)
Method: RNA Bind-n-Seq
Molecule type: RNA
Medium: in vitro
Tested at: 365 nM
Setting: natural RNA segment, single round, ends assumed
Relative to: no-protein control
Reading: higher = stronger binding
Measurement: RBNS enrichment (R)
Constant ends, left off below: GGGAGUUCUACAGUCCGACGAUC … UGGAAUUCUCGGGUGCCAA
Construct (chain): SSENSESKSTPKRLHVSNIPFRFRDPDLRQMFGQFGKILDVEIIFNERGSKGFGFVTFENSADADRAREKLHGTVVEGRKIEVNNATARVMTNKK
AUGUAAAACUUUUAAGGUAUAUCAUUAUAACUGAAGGAGAAGGUGCCCCAAAAUGCAAGAUUUUCCACAAGAUUCCCAGAGACAGGAAAAUCCUCUGGCUGGCUAACUGG: 0.571
GGAUGGGCACCACAGACAGGAGGCCCCUCAGGCCCGUGCGGGCCACUGUCUGCUGCCGCCUGCCGGGGUGGCAGAGUGAGUUGUCUCAGGACCCCGUCACUGCGACGUUG: 0.618
GUGCUGGAACAGAUUGUCUGGGAGGCUAGAGCCCUGCCUGUAGAGAAAACACUCUUCUCAGGAGUAGGAGAGCCUGGAGGGCUGUCAGCACCACAGUGACCUAAGCGGCU: 0.988
UCAGUGUUAGCCCAAAGAUUCUGAGGUUUAGAAAAAAAUUAUGUAAGAUCUGAACAUCAGUUUGCAGACAAAAUUAAAUUAGAGCUUUAUUUUAUUUGGAGAAGAGGGAU: 1.18
CAGAAGCCCACCAAACAGGAGGAAUUCUAUGCCUGACGCGGGAGCCAUGCGCCCCCUCCGCCCUGCCACUCACUAGGCCCCCACUUGCCUCUUCCUUGAAGAACUGCAGG: 0.22
CUCCAAAUUCCCCCAGCAGACUUCUACCCUCGCCAAGUUCCCAAAACCCACUCAGCAAAGUUGCCAACCUCGACGGGCUAGCAGUGUCUAAGCAGCGAUGGGUUCAGUGU: 0.279
UAGAAUAGGACUGGUUUUGUUUACCUCACCUAUGAGGUUGGCAGUAGCUCCCAACCCAUUUCACAAGAGGAGGUUUGACCAUUACGCUCUCAGCUAUUCCUGCAGCCAUG: 0.256
CAAAGAUGAAGUCUCACCUUCCAGUUUGCUUUCUCAUUAGUUUUUUCCAAAGUAAGUUAUUGAAGCUGUGAUUGACAUUUUUCUCAUAAUGAAUCCUCUCAGGACAUUGU: 0.512
GAAUUGUGGAGGGAAAUGAAAUAUCCAUGUACCAGGCCAGGCAGAUGGUCAGUUAGGAUGACAAUAGUAAGUUCAUCUACAGCAUAAAAUGUGAAAUGCUUUCAUCCUCA: 1.43
ACACACAAGAGUUUACAGAUUAGUUUAAAUUGAUAAUGAAAUGUGAAGUUUGUCCUAGUUUACAUCUUAGAGAGGGGAGUAUACUUGUGUUUGUUUCAUGUGCCUGAAUA: 0.758
UUCCUUUUCCACGAACCUCUUCUGUACUUUGAUUGUAAUAGGUUGGCUCUUACACCCAUUCCAAAUGCAGUUUAUUUUUAGACCCGAUUGCAAAUAGUGAUGUAGUUUUA: 0.743
AAAGAGUGGAACUAUCCAAAAGAGACAGGGAGAAAUAAAUAAAUUGCCUCCCUUCCUCCGCUCCCCUUUCCCAUCACCCCUUCCCCAUUUCCUCUUCCUUCUCUACUCAU: 1.29

Series 4
Target: TAR DNA-binding protein 43, full length, His tag (TARDBP, Homo sapiens, UniProt Q13148, residues 1-414)
Method: RNA Bind-n-Seq
Molecule type: RNA
Medium: in vitro
Tested at: 20 nM
Setting: 6-mer, flanks averaged, single round
With: 150 mM LiCl
Relative to: input library
Reading: higher = stronger binding
Measurement: 6-mer enrichment (R)
AUAAGU: 0.974
UUUUGG: 1.35
CUAUAG: 0.866
GGACAU: 0.964
CGAGGC: 0.935
GAGUCC: 0.897
AAUACA: 0.853
AUUUUG: 1.25
GGGCAG: 1.16
CAUUCA: 0.861
AAAAGC: 0.851
UGAACC: 0.914
UGUCGG: 1.15
CUAAUC: 0.836
GCCACU: 0.911
UAGUAU: 1.04
AAAACG: 0.809
UAGACA: 0.864
UCCGAG: 0.901
GUUUUA: 1.24
CUCUGA: 0.81
GUAUCU: 0.902
GAGACC: 0.873
UAGUCG: 0.946
CGGCGG: 1.05

Some of these lines once more (series 4):
CUAUAG: 0.866
GGACAU: 0.964
CGAGGC: 0.935
GAGUCC: 0.897
AAUACA: 0.853
AUUUUG: 1.25
GGGCAG: 1.16
CAUUCA: 0.861
AAAAGC: 0.851
UGAACC: 0.914
UGUCGG: 1.15
CUAAUC: 0.836
GCCACU: 0.911
